Measurements gathered from unrelated publications.
A part holds a random share of what one study measured. Changes are numbered by the printed parent chain.

Study 1
Target: Hepatocyte nuclear factor 3-alpha (Foxa1, Mus musculus, UniProt P35582, residues 1-468, full length assumed)
UniProt P35582, sequence (whole entry, looked up): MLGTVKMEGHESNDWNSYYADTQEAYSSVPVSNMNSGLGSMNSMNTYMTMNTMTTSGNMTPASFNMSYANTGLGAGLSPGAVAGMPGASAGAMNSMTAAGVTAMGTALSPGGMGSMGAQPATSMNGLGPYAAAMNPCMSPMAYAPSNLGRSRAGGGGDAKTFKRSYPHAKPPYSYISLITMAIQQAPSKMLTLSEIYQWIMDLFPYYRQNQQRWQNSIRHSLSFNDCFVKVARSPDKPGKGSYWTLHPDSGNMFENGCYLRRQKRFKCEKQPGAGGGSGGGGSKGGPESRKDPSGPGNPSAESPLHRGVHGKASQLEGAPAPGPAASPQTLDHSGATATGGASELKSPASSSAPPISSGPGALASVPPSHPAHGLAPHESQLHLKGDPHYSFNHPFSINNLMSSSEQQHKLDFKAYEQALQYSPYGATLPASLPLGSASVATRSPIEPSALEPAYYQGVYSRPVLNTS
Method: EMSA with sequencing
Molecule type: double-stranded DNA, one strand shown
Sample: in vitro
Concentration: 10 and 20 nM
Notes: whole designed probe, mean of two concentrations, ends assumed
Baseline: negative control set to 0
Direction: higher = stronger binding
Measurement: normalised bound fraction
Constant ends, left off below: GTGAGCGGTGCCCATTGATGGGGAAC … TTTCACTGGGATCGTGGGGAC
GGAATTCCAACCTGAGATAAGGGCAATAAGTTTACTAGCTATGAGATATTACAGATAACATTTCGTACTGATGCCTCTTTTTGGTATTATGTAAAATTATTTTGGTCAGAAATATTGGATGAGTCACTAAATTGCATCATCTCAAGAAATGTTCCTGCATTTACATGTTATCCACTTAGAATTTAAAGTGGAC: -0.056 ratio
ACTGGGATGAGAGGCCAGGTAGAAACTTCAGGAGCATTCCACTTTGAAGTGTGAGGCTCTACCAGACACAAAATAAATATAACTGGGGGCCAGAATAAACATCCAGGGCCAGCAAGTGAACCTGGCTTACGTGGCATGCATTAATATTTGGAGAAATTTCCCCAGCGAGGTTGCAGGAAGCTGAGTCACCTAC: 0.356 ratio
CACCGCGCTCGCACGGCTTTGTCCGTGCTACAAAGCAGCCTGTTAAACTATTGGAACTAATGCGCCGCAGCTGCGCGAGTGACTTCTGCTGCTTATGTACATAAAAAGTCCTGTAACCATCAGAGGGGGAGGGCTTGCCTGCTGCTGGGTTGTTTGGCTAGTCTTTCCATTTGCTTATTCCTGAATCCAAAGG: 0.33 ratio
GGCTCCAAACGGCTGAATCAGCATTTTCAGAAACAAAGTGTTCTAGGCCTGGCCTTTTAAACAGCAGCAACGTTGTGCAATGAGCAAAACGCATATTTACTCACGAGCTCTCCTTGTTTTGGTCTTTCCCCCCTCCCCCCCATCTCTTGAATGAAACTGGGCACCAAGTTTGCAAGAAAATATTCTTTCAAAC: 0.122 ratio
AATTTCCTGTGCTCTCTTTCCTGCCCTCATTCAAGTGGTCACCTTCCTTATTTCCCTCAGAAATACTCACAGAAGCTGTCAGAAGGGTTATGAGTCAACACTCACGTGCTTGAACCCACATGTCTATCAGCCAACCTTGGTGTGGCTGGACCTCACATTCTGTTTGCCCTTCTGTGATGGATGAACTTGTGTT: 0.0712 ratio

Study 2
Target: CCND2, cyclin fold, Cln2 fusion (human)
Method: yeast growth competition, sequencing
Sample: yeast
Notes: weak parent motif
Baseline: not given
Direction: higher = stronger binding
Measurement: normalised enrichment score
Parent: E2F1 docking peptide (human); PPVKRRLDLETDH
R6A: 0.186
P1Q: 0.379
P1E: -0.0158
P1S: 0.144
R5C: 0.338
D8H: -0.0611
E10V: 0.0022
K4R: 0.00656
L7Q: 0.118
R5Y: 0.132
V3N: 0.13
T11F: 0.484
H13T: 0.502
D8N: 0.249
D8V: 0.158
E10H: 0.588
L7P: 0.594
D12G: 0.286

Study 3
Target: ABI1, truncated, D143A, DHFR fusion (Arabidopsis thaliana)
Method: DHFR PCA, deep sequencing
Sample: yeast
Notes: methotrexate growth selection, single substitutions
Added: (+)-ABA 4.8 µM
Baseline: wild-type fitted maximum
Direction: higher = stronger binding
Measurement: relative binding score
Parent: PYL1, truncated, DHFR fusion (Arabidopsis thaliana); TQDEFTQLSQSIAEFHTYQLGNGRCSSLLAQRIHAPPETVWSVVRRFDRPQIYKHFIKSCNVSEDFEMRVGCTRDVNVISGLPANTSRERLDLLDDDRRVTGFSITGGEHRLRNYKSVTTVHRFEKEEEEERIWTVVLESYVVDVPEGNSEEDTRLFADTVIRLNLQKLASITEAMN; partner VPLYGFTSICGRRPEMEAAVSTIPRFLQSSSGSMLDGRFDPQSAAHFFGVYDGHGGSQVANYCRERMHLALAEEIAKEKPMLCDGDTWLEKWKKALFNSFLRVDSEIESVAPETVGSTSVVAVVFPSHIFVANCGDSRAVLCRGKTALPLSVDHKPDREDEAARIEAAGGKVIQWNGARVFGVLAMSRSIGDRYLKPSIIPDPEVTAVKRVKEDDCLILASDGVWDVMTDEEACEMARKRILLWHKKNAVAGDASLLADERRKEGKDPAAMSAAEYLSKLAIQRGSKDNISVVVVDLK
N149Q: 25.6%
I162K: -0.629%
R98L: 56.7%
E131C: 76.2%
A35C: 51.3%
V137T: 0.945%
E38N: 43.6%
L169C: -12.5%
T6C: 69.4%
R99L: 83.8%
A158P: -12.3%
S27A: 39%
F103I: -2.25%
E128I: 43.8%
E151S: 69%
V78K: -1.12%
V76K: -1.4%

Study 4
Target: RNA binding protein fox-1 homolog 2, RRM domain, GST-SBP tag (RBFOX2, Homo sapiens, UniProt O43251-10, residues 100-194)
Method: RNA Bind-n-Seq
Molecule type: RNA
Sample: in vitro
Concentration: 365 nM
Notes: natural RNA segment, single round, ends assumed
Baseline: no-protein control
Direction: higher = stronger binding
Measurement: RBNS enrichment (R)
Constant ends, left off below: GGGAGUUCUACAGUCCGACGAUC … UGGAAUUCUCGGGUGCCAA
Target sequence (chain): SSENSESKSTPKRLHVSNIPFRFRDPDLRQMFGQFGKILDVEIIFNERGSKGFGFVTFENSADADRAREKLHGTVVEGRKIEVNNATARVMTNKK
UAGCACCUUUUUGCCACCUUGGUGAACAGAAAAUUGUAUUUUCCUGUCUUUCAUGGCUGAAAACAAAAGUAAUGGGAAUUUUAAAUACGUUUGCAGAAACUGCCCCUCCC: 0.353
GAAGGCAGAGAGCUCUGCCUAGGGAAUGCCUCCGCCAUAAGGGGCCACUGCUUGUGUCAAGGGAGGCAGGCAGAAGAGAUGAGUCCAUUCCUCAGGGACAGGUACCUGUA: 0.799
CUUUUUGUUAGCCAAAGUGUUCUGUUUAUUUGGCUUGUCAUUUUCCGUGUGCUUUAAAAAGGUGUUGUUAUGAAGUUUGCUGUUCUGGCAAUAAACUUGCAGACCUUGGA: 6.66
CUGGCCAGGGGCCUGGUGUAGACACAGUAGAAGACAGUCAACUAUGGGCGCAUUCUGUCUGGAGCUCCCAGAAGGAGCUGUGUGCUGCUGGAGAGGAGGCUAAUUGUUGG: 0.698
UCAGUUAAUCACUCCCACAACUUUGAGCUGUGAGUUUUACUGGUGGAAGGAACUUUAACAGGUCUUCGCUCUUGUCAUUAGAUAUCAAAGAACUGAAAUUAGUUGGAAUU: 0.285
ACAUGUGAAGUGUUUAUCAUAAGAUCCUCAGGAGUCAGUAUUGCAUGAUGCUCCCCUUAAUUGUCACACUGAAAUUAUGUAGUAAAUCAGAAAAUACCUGAAAAGCAACU: 64.4
UCUAUCCCCUCUUCUUGUAAAGCACAAGCCGGGGGCCGUGAGUGUAUUACAACCCAACGGCGGCCCAUCUUCAACGGAAAGCGAGAACCAUUUUGGAAACUGUCAUGUAA: 0.38
UGGGCAACAAGAACAAAACUCCAUCUCAAAAAAUAAAAAUCCCAAUCCCAAGUCGAAAUCACCUCUUGUUUUAAACAAGAAUGAAUCAUUACUGUGUAUGUUAGGGUAUU: 0.586

For quick reference, copied from above (study 2):
V3N: 0.13
T11F: 0.484
R6A: 0.186
K4R: 0.00656
R5Y: 0.132
P1S: 0.144
R5C: 0.338
